# Experimental data gathered from unrelated publications.
# Protocols differ between the studies behind these lines. ± marks the error that the study gave.
Compound,organism,assay,test system,conditions,scale,endpoint,result
OC(CCN1CC=C(c2ccc(F)cc2)CC1)c1ccc(F)c2ccccc12 (centres unmarked),Salmonella typhimurium,SOS/umu test,TA1535/pSK1002,"0.002 mg/mL, 4 h, with S9, full range",,survival,99.3%
CC(=O)N1CCC(C(=O)N2CCN3C(=O)c4cc(-c5ccccc5)ccc4NC(=O)C3C2)CC1 (centres unmarked),Salmonella typhimurium,,TA98,"50 µg/plate, together with: rat liver S9",,revertants per plate,43
Cc1cc(C(=O)NC(C)(C)COc2cccc3c2C(N)=NS(=O)(=O)N3)cc(C)n1,Salmonella typhimurium,"Ames test, initial",TA100,15.0 µg/plate,baseline: solvent control,revertant ratio,1.1
O=[N+]([O-])c1ccc(N2CCN(CCC(O)c3ccc(F)cc3)CC2)c(C(F)(F)F)c1 (centres unmarked),Salmonella typhimurium,SOS/umu test,TA1535/pSK1002,"0.031 mg/mL, 4 h, with S9, full range",,survival,66.9%
[Cl-].[Cl-].[Pt+2].[Ru+2].c1ccc(-c2nc3cc4ccccc4cc3nc2-c2ccccn2)nc1.c1cnc2c(c1)ccc1cccnc12.c1cnc2c(c1)ccc1cccnc12,Danio rerio,,embryos,"90 µM, 24 h",,survival rate,70 ± 5.1%
COc1cccc(-c2n[nH]c(SCc3ccccn3)n2)c1OC,Salmonella typhimurium,"Ames test, plate incorporation",TA98,"0.50 mg/plate, with rat liver S9",,revertant colonies per plate,34
[Cl-].[Cl-].[Pt+2].[Ru+2].c1ccc(-c2nccnc2-c2ccccn2)nc1.c1cnc2c(c1)ccc1cccnc12.c1cnc2c(c1)ccc1cccnc12,Danio rerio,,embryos,"90 µM, 48 h",,hatching rate,0%
CC1(F)CN(C(=O)Cn2c(=O)c(C(=O)NCc3ccc(Cl)cc3)cc3nc(N4CCNC4=O)cnc32)C1,human cytomegalovirus,,"MRC-5, AD169-GFP",,baseline: CC50 over EC50,selectivity ratio,> 184

# A few entries again:
Compound,organism,assay,test system,conditions,scale,endpoint,result
Cc1cc(C(=O)NC(C)(C)COc2cccc3c2C(N)=NS(=O)(=O)N3)cc(C)n1,Salmonella typhimurium,"Ames test, initial",TA100,15.0 µg/plate,baseline: solvent control,revertant ratio,1.1
